Assay results of several laboratories.
Parts stem from different laboratories: compare values within a part only.
Chain of UniProt Q9H3Y6 (whole entry, looked up): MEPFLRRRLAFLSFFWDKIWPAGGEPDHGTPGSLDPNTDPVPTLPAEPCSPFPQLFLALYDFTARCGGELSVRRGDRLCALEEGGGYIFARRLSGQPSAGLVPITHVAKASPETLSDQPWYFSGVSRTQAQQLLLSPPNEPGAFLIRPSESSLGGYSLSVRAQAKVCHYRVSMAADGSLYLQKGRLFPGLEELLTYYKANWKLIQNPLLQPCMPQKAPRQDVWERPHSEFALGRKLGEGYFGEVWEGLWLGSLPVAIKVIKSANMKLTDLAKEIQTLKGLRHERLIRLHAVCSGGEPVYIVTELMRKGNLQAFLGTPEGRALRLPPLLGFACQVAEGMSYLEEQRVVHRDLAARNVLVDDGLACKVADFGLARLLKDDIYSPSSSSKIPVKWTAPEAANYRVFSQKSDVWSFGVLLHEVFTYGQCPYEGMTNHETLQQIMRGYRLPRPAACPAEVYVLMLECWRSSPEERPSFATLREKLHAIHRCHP
Chain of UniProt P00519 (whole entry, looked up): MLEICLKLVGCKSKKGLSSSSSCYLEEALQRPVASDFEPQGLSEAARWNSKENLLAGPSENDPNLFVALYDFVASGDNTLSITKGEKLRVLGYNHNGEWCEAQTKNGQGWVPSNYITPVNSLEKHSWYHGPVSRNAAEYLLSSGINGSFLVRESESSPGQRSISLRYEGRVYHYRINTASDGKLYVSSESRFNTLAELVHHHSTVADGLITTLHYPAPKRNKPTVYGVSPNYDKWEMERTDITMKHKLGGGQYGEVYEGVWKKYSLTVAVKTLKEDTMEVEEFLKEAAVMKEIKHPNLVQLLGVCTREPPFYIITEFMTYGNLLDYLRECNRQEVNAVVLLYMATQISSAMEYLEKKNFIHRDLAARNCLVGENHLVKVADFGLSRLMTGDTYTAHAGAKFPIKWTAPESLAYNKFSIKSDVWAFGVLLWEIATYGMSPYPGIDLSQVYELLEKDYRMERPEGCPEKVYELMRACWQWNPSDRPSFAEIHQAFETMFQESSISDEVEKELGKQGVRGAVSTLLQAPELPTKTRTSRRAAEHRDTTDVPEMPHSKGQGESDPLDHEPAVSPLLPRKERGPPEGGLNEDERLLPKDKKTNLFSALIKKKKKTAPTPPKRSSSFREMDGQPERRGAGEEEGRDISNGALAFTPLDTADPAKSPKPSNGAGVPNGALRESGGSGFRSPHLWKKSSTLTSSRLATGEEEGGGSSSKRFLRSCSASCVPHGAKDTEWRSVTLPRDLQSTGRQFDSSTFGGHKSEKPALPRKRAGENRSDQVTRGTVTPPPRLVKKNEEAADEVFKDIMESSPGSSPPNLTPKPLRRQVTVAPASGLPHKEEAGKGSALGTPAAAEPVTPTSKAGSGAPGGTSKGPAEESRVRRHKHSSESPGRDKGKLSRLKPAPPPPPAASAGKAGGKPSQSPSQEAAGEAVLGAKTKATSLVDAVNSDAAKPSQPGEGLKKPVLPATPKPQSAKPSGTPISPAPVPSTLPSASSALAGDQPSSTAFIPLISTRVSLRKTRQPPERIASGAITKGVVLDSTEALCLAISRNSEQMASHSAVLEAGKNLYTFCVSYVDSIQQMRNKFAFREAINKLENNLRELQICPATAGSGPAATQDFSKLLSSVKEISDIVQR
Chain of UniProt P22612 (whole entry, looked up): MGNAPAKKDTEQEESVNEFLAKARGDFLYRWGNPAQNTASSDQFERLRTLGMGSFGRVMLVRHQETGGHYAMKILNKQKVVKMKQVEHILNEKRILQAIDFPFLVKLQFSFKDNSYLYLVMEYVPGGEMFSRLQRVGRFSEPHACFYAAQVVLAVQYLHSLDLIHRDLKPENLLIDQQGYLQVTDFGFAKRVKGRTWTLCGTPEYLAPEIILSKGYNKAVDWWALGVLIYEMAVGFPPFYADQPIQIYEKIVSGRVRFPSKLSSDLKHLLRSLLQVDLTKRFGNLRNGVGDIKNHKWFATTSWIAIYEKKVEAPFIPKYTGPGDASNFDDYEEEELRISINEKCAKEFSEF
Chain of UniProt P48146 (whole entry, looked up): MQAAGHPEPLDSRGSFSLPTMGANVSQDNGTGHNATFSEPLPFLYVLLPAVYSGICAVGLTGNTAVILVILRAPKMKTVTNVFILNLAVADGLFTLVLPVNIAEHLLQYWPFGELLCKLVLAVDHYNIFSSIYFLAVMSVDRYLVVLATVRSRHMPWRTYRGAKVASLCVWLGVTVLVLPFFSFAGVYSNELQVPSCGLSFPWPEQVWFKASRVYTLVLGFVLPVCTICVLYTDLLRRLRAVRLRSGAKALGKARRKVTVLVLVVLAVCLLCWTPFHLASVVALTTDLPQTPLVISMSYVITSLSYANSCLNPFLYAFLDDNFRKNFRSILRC
Chain of UniProt O75716 (whole entry, looked up): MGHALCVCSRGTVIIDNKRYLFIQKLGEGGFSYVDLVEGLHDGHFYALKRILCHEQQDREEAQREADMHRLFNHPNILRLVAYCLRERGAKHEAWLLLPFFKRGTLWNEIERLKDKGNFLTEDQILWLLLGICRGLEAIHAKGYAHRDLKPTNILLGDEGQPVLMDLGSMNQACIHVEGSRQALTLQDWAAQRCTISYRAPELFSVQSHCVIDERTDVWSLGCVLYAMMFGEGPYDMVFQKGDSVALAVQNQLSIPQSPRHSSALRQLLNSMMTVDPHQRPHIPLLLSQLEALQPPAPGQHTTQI
Chain of UniProt Q96LB0 (whole entry, looked up): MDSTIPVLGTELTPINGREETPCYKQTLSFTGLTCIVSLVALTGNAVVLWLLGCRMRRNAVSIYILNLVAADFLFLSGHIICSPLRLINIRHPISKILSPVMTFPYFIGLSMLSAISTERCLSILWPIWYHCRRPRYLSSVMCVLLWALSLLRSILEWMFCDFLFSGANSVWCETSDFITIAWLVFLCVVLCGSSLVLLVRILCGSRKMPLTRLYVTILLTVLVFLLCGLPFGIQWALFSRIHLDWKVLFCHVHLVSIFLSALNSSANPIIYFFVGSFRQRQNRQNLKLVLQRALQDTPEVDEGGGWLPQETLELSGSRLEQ
Chain of UniProt O43781 (whole entry, looked up): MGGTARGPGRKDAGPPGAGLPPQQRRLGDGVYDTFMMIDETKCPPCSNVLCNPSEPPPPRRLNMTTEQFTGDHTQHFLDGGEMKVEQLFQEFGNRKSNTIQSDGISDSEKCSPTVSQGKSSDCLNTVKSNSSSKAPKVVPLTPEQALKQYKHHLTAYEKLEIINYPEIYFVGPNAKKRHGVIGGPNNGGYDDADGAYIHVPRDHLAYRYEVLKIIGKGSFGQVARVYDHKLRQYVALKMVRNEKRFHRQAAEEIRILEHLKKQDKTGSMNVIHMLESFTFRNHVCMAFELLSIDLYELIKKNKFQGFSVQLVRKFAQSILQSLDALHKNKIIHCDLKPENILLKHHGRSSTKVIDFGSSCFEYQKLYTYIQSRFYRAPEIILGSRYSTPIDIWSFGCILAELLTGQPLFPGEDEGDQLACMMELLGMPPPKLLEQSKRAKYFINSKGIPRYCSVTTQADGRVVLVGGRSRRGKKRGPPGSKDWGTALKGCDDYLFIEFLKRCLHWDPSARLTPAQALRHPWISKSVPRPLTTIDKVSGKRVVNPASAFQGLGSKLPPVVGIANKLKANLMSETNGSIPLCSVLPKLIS
Chain of UniProt Q9Y2T6 (whole entry, looked up): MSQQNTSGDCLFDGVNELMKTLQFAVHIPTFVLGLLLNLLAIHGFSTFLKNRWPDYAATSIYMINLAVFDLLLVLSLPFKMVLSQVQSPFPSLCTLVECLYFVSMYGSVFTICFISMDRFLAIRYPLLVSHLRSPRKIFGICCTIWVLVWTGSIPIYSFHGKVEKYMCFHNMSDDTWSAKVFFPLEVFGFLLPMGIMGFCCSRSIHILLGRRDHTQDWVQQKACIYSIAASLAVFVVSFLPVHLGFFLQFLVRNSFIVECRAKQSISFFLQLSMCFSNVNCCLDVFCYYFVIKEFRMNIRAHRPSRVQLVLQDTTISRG
Chain of UniProt P54762 (whole entry, looked up): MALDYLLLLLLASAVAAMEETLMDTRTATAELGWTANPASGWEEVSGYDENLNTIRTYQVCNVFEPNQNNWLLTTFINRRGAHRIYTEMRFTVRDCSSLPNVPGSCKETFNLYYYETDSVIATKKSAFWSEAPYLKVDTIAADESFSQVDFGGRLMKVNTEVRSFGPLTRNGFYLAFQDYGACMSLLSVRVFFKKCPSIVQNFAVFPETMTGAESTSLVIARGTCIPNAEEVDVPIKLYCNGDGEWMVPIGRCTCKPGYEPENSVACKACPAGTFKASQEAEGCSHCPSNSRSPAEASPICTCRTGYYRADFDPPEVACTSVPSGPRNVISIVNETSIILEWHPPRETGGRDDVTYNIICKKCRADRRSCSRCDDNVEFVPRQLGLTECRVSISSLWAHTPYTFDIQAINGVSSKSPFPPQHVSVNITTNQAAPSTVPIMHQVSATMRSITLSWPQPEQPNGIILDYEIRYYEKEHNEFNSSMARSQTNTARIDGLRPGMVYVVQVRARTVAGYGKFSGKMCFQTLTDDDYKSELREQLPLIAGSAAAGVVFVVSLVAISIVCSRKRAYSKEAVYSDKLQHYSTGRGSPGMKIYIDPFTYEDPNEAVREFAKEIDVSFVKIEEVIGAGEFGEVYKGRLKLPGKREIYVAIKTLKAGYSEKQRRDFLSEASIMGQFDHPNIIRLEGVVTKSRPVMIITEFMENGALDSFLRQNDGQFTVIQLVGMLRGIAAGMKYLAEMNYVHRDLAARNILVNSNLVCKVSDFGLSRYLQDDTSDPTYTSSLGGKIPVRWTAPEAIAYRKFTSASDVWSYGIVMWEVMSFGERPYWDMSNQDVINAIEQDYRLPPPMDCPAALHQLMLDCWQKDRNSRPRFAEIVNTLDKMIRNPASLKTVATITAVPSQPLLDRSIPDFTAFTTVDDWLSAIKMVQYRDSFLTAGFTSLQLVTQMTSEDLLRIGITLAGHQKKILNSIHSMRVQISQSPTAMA

Block 1
Compound: N#CC(c1ccnc(NCCc2cccnc2)n1)c1nc2ccccc2s1 (stereo not shown)
Observed: enzyme activity
Action: inhibitor
Concentration: 0.5 µM
Relative to: control
target | remaining activity
MAP kinase-activated protein kinase 3 (MAPKAPK3, Homo sapiens, UniProt Q16644) | 102%
Serine/threonine-protein kinase 16 (STK16, Homo sapiens, UniProt O75716) | 79.2%
Mitogen-activated protein kinase kinase kinase kinase 4 (MAP4K4, Homo sapiens, UniProt O95819) | 87.1%
Homeodomain-interacting protein kinase 4 (HIPK4, Homo sapiens, UniProt Q8NE63) | 97.6%
Ribosomal protein S6 kinase alpha-6 (RPS6KA6, Homo sapiens, UniProt Q9UK32) | 87%
Homeodomain-interacting protein kinase 2 (HIPK2, Homo sapiens, UniProt Q9H2X6) | 95.8%
Phosphorylase b kinase gamma catalytic chain, skeletal muscle/heart isoform (PHKG1, Homo sapiens, UniProt Q16816) | 89%
Calcium/calmodulin-dependent protein kinase type II subunit beta (CAMK2B, Homo sapiens, UniProt Q13554) | 97.3%
Ephrin type-B receptor 1 (EPHB1, Homo sapiens, UniProt P54762) | 90.9%
Serine/threonine-protein kinase 17A (STK17A, Homo sapiens, UniProt Q9UEE5) | 94%
3-phosphoinositide-dependent protein kinase 1 (PDPK1, Homo sapiens, UniProt O15530) | 95.9%
Tyrosine-protein kinase receptor UFO (AXL, Homo sapiens, UniProt P30530) | 106%
Testis-specific serine/threonine-protein kinase 2 (TSSK2, Homo sapiens, UniProt Q96PF2) | 102%
Tyrosine-protein kinase Blk (BLK, Homo sapiens, UniProt P51451) | 102%
Tyrosine-protein kinase ABL1 (ABL1, Homo sapiens, UniProt P00519) | 96.3%
Ephrin type-A receptor 4 (EPHA4, Homo sapiens, UniProt P54764) | 104%
Cyclin-dependent kinase 4, with cyclin D3 (CDK4, Homo sapiens, UniProt P11802) | 85.7%
Dual specificity tyrosine-phosphorylation-regulated kinase 3 (DYRK3, Homo sapiens, UniProt O43781) | 103%
Cyclin-dependent kinase 6, with cyclin D3 (CDK6, Homo sapiens, UniProt Q00534) | 94.6%
Ribosomal protein S6 kinase alpha-5 (RPS6KA5, Homo sapiens, UniProt O75582) | 98.9%
Cyclin-dependent kinase 1, with cyclin B (CDK1, Homo sapiens, UniProt P06493) | 96.8%
Serine/threonine-protein kinase WNK3 (WNK3, Homo sapiens, UniProt Q9BYP7) | 81.3%
Tyrosine-protein kinase Srms (SRMS, Homo sapiens, UniProt Q9H3Y6) | 106%
cAMP-dependent protein kinase catalytic subunit gamma (PRKACG, Homo sapiens, UniProt P22612) | 101%
Ephrin type-B receptor 4 (EPHB4, Homo sapiens, UniProt P54760) | 99.7%

Block 2
SMILES: COc1cccc(NC(=O)c2nc3scc(CN(C)Cc4ccccc4)c3c(=O)[nH]2)c1
Concentration: 1 µM
Relative to: DMSO
cell line | conditions | viability [%]
colorectal tumour organoids |  | 107
sample BA colorectal tumour organoid |  | 84.9
sample B colorectal tumour organoid | replicate 2 | 109
sample I colorectal tumour organoid | replicate 2 | 103
sample B colorectal tumour organoid | replicate 1 | 110
sample C colorectal tumour organoid | replicate 2 | 90.7
sample C colorectal tumour organoid | replicate 1 | 88
sample I colorectal tumour organoid | replicate 1 | 189

Block 3
Cell line: mouse MPNST tumor cells
Method: high-content immunofluorescence imaging
Item: nuclear SOX9
Concentration: 10 µM
Time: 12 h
Notes: mean of 2 replicates
Relative to: DMSO control
Reading: higher = more nuclear SOX9
SMILES | nuclear SOX9 intensity
CCN[C@H]1C[C@H](C)S(=O)(=O)c2sc(S(N)(=O)=O)cc21 | 98.1 % of DMSO
COc1ccc(S(=O)(=O)Nc2cccnc2Nc2ccc(O)cc2)cc1 | 197 % of DMSO
N#CN=C(NCCCCCCOc1ccc(Cl)cc1)Nc1ccncc1 | 117 % of DMSO
c1ccc2c(Oc3nc(Nc4ccc(N5CCOCC5)cc4)c4ncn(C5CCCCC5)c4n3)cccc2c1 | 172 % of DMSO
O=C(O)c1ccc(C=C2SC(=S)N(c3cccc(C(F)(F)F)c3)C2=O)cc1 | 98.4 % of DMSO
CN[C@H]1CC[C@@H](c2ccc(Cl)c(Cl)c2)c2ccccc21 | 147 % of DMSO
CCOc1nc2cccc(C(=O)O)c2n1Cc1ccc(-c2ccccc2-c2noc(=O)[nH]2)cc1 | 92.5 % of DMSO
NCCNC(=O)c1ccc(Cl)cn1 | 99.4 % of DMSO
O=C1NC(=O)c2c1c(-c1ccccc1)cc1[nH]c3ccc(O)cc3c21 | 163 % of DMSO
Nc1ccc(S(=O)(=O)c2ccc(N)cc2)cc1 | 104 % of DMSO
OC(CCN1CCCCC1)(c1ccccc1)C1CC2C=CC1C2 (stereo not shown) | 121 % of DMSO
CCCC(C)NC(=O)c1ccc(Cl)c(Cl)c1 (stereo not shown) | 113 % of DMSO
C[N+]1(CC2CCCCCC2)CCC(NC(=O)C2c3cc(Cl)ccc3Oc3ccc(Cl)cc32)CC1 (stereo not shown) | 83.2 % of DMSO

Block 4
SMILES: CC(C)CN(C)c1nc(N)c(C(=O)N=C(N)N)nc1Cl
Observed: β-arrestin recruitment
Action: agonist
Method: PRESTO-Tango
Concentration: 10 µM
Relative to: untreated
target | fold over basal
Metabotropic glycine receptor (GPR158, Homo sapiens, UniProt Q5T848) | 0.67
NPBWR2 (Homo sapiens, UniProt P48146) | 0.91
Probable G-protein coupled receptor 174 (Homo sapiens, UniProt Q9BXC1) | 0.97
G-protein coupled receptor 78 (GPR78, Homo sapiens, UniProt Q96P69) | 0.78
Mas-related G-protein coupled receptor member X3 (Homo sapiens, UniProt Q96LB0) | 1.86
G-protein coupled receptor 55 (GPR55, Homo sapiens, UniProt Q9Y2T6) | 1.67
Lysophosphatidic acid receptor 2 (LPAR2, Homo sapiens, UniProt Q9HBW0) | 1.86
C-C chemokine receptor type 5 (CCR5, Homo sapiens, UniProt P51681) | 0.55
Alpha-1A adrenergic receptor (ADRA1A, Homo sapiens, UniProt P35348) | 0.94

Some of these lines once more (block 1):
target | remaining activity
Dual specificity tyrosine-phosphorylation-regulated kinase 3 (DYRK3, Homo sapiens, UniProt O43781) | 103%
Homeodomain-interacting protein kinase 2 (HIPK2, Homo sapiens, UniProt Q9H2X6) | 95.8%
Cyclin-dependent kinase 4, with cyclin D3 (CDK4, Homo sapiens, UniProt P11802) | 85.7%
Serine/threonine-protein kinase 17A (STK17A, Homo sapiens, UniProt Q9UEE5) | 94%
Serine/threonine-protein kinase WNK3 (WNK3, Homo sapiens, UniProt Q9BYP7) | 81.3%
Testis-specific serine/threonine-protein kinase 2 (TSSK2, Homo sapiens, UniProt Q96PF2) | 102%
